# Assay results collected from several papers.
# Every numbered part comes from another study and shows a few of its results, in no order. Changes are numbered by the printed parent chain.

# Set 1 — target: CCNB1, cyclin fold, Cln2 fusion (human); technique: yeast growth competition, sequencing; matrix: yeast; notes: weak parent motif; reference: not given; reading: higher = stronger binding
# Parent: SLBP docking peptide (human); ARYKRKLLINDFG
Variant,normalised enrichment score
I9D,-0.148
K6L,1.02
L7W,-0.0927
A1Y,0.551
I9Q,0.139
L8W,0.34
K4S,0.0953
N10T,0.919
L8R,0.747
I9F,0.758
K4G,0.666
K6M,-0.368
L7G,0.832
I9G,0.849
N10V,0.393
R5P,0.0146
R2K,0.936

# Set 2 — technique: RNA Bind-n-Seq; molecule type: RNA; matrix: in vitro; concentration: 20 nM; notes: 6-mer, flanks averaged, single round; together with: 150 mM LiCl; reference: input library; reading: higher = stronger binding
# Target: TAR DNA-binding protein 43, full length, His tag (TARDBP, Homo sapiens, UniProt Q13148, residues 1-414)
Strand,6-mer enrichment (R)
GAAGGA,1
GGCAAA,0.952
CCAAUC,0.863
GCAUGG,1.16
CAAAGA,0.808
CCGGGC,0.949
GAAAUA,0.87
AUAGGC,0.91
GUGAGG,1.45
AGAUAU,0.874
GCAUAU,0.933
GACGAA,0.866
UGCCCU,1.11
GGUGAA,1.17
GGUACA,0.917
GCGUCC,0.944
ACGCAG,0.874
ACUCAU,0.872
GCGAUU,0.906
CGAACG,0.806
GUAGCC,0.972
UGAAUG,1.49
UUGUUA,1.17

# Set 3 — target: NFE2, bZIP domain (human); technique: DHFR protein complementation; matrix: yeast; reference: wild-type JUN-FOS pair; reading: higher = stronger binding
# Notes: single substitutions, most at no-binding floor
# Parent: JUN, bZIP domain (human); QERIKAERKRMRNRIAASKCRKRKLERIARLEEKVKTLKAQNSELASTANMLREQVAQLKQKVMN; partner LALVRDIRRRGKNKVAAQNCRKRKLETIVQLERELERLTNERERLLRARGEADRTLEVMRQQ
Variant,binding fitness
L45K,-1.44 natural log
I28G,-1.42 natural log
S43W,-1.45 natural log
L38N,-1.59 natural log
R53P,-1.51 natural log
A46V,-1.54 natural log
L38S,-1.53 natural log
E32L,-1.52 natural log
A49N,-1.46 natural log
L31N,-1.41 natural log
S43G,-1.45 natural log
L52N,-1.36 natural log
T37R,-1.27 natural log
K39W,-1.46 natural log
M51H,-1.48 natural log
A49P,-1.57 natural log
T48L,-1.49 natural log
E33S,-1.36 natural log

# Set 4 — technique: RNA Bind-n-Seq; molecule type: RNA; matrix: in vitro; concentration: 365 nM; reference: no-protein control; reading: higher = stronger binding
# Target: RNA binding protein fox-1 homolog 2, RRM domain, GST-SBP tag (RBFOX2, Homo sapiens, UniProt O43251-10, residues 100-194)
# Notes: natural RNA segment, single round, ends assumed
# Shared flanks, not repeated: GGGAGUUCUACAGUCCGACGAUC … UGGAAUUCUCGGGUGCCAA
# Residues (chain): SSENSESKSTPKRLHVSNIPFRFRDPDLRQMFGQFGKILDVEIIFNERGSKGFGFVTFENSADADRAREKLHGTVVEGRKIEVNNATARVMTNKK
Strand,RBNS enrichment (R)
CUGUGGGAGGUAAACUUAAGCUGAAGGUGGCGGACUCUACUGUCGCAGGCCACAGCAGACAGGGUGGGAGCCCUGUACAGCUUGAUAACCCUUAAUAAAGAAGGGACUUU,0.251
GCGGGAGCAACCACAAUCAAACCUACAGGGCAGGCCCUAGGGUUUGUUAUCCCACGUUCAGGCCAGGAUUAGUACAGAGCUGGUUAAGGCUUUCAUUUCACUUCAGAUUC,0.532
AAUUGAUGUUCUUGCUUUGUGUUGUGUUCUGGUAAAGCUUUAAGUGAGUGUCUUACCCCUUUCCUAUACUUUCUUGUUAUCCAUAUCAUUCUUUUGUGAGUUUUGCAGCA,1.48
AAAGCUUUUAAAUCUUGCCUUCUUUCUUCUGUACUUUGUCUUUUUAAAAUCUCAUUACUAUCUAUUAUUUAGUUCUAACACAGAAGCUUUAAAAAUACAUAGUCAUCCAA,0.43
GGAAGACCCAGAGAGGCCAAGAUCCCAUCCUUAGCCAUAGCGAGCGGUGGUGGUGGAUAGCAUCACAAGAAACGAGCCUGAAAAUCAGGUCCAGCCGGUCCAAGCACAUG,0.308
CCCGGAUGGCAGGGCAUGUUUCUGUUUUGGUGUCUCACUUUCCUCCCAGCGUGACUUAUUUGGGGAUUCCUCAGGGCCUACUGGAAUGUGACUGCCCACUGCCCAGCUGC,2.59
GGGGAUAGGGUGUCCUUGGGAACAAUGGAUCCCAGCUUAGCCCCAAAGACCAACCAAAGAGCCAGCCAGAGUAAGCUGGACCUGCAACCUGCCUGAGCCCCGUGGCCUCU,0.708
UGAUUACAACCUUUAAAGCAAGAGGAGGCGAGUUAAUUUGGAUGAGUGUGAUUUUGCUGAUUGAAUGUGAGUUUUCAAAUAGGAGUCUUUUUCUGCAAUUUGUUUGCAUU,6.96

# Set 5 — technique: DHFR PCA, deep sequencing; matrix: yeast; together with: (+)-ABA 0.032 µM; reference: wild-type fitted maximum; reading: higher = stronger binding
# Target: ABI1, truncated, D143A, DHFR fusion (Arabidopsis thaliana)
# Notes: methotrexate growth selection, single substitutions
# Parent: PYL1, truncated, DHFR fusion (Arabidopsis thaliana); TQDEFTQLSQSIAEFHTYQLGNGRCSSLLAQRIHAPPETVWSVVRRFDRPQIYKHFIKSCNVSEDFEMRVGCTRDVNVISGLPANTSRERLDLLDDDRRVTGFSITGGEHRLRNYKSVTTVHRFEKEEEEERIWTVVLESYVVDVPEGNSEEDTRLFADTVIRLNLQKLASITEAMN; partner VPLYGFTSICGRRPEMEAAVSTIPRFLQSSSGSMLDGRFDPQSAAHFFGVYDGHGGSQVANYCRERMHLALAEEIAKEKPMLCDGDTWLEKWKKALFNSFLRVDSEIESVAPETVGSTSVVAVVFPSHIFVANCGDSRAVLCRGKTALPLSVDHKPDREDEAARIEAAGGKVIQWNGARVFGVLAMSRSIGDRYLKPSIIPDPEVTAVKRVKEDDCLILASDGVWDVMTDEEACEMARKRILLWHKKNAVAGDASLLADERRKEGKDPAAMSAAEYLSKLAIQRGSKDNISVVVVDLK
Variant,relative binding score [%]
A170E,-3.4
N149F,4.15
T86R,10.2
K116P,-4.97
M68V,6.43
E129W,3.07
R24I,4.33
R123S,49.4
G71M,-2.94
G107C,7.66
N61P,4.07
C60A,-3.01
V145N,-10.5
R90C,-16.3
Q19N,22.9
L91N,3.93
F124D,2.39

# For quick reference, copied from above (set 2):
Strand,6-mer enrichment (R)
GGCAAA,0.952
CCAAUC,0.863
GCAUGG,1.16
CAAAGA,0.808
CCGGGC,0.949
GAAAUA,0.87
AUAGGC,0.91
